Assay results collected from several papers.
Every numbered part comes from another study and shows a few of its results, in no order. Substitutions count along the parent as printed.

Set 1
Target: RNA binding protein fox-1 homolog 2, RRM domain, GST-SBP tag (RBFOX2, Homo sapiens, UniProt O43251-10, residues 100-194)
Technique: RNA Bind-n-Seq
Molecule type: RNA
Matrix: in vitro
Tested at: 365 nM
Notes: natural RNA segment, single round, ends assumed
Baseline: no-protein control
Direction: higher = stronger binding
Quantity: RBNS enrichment (R)
All sequences stand within: GGGAGUUCUACAGUCCGACGAUC … UGGAAUUCUCGGGUGCCAA
Construct (chain): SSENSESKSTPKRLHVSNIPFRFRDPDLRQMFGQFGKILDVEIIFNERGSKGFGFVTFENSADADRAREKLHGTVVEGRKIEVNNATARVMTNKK
AGCUGGGCCCAGCCCCUCCACGUGAUUUCCAGUGAGUGUAAAUAAUUUUAAAUAACCUCUGGCCCUUGGAAUAAAGUUCUGUUUUCUGUAUUUGCCUGGUAUUGUGUGAG: 0.842
AACUUUGCAAAGACCUUCGUCUUUGAGAAGACGGUAGCUUCUGCAGUUAGGAGGUGCAGACACUUGCUCUCCUAUGUAGUUCUCAGAUGCGUAAAGCAGAACAGCCUCCC: 0.195
ACUUGAUUGCUUUCCAGUUUAAUGAAAGCUUAGAUGUCCCUGCGAACCCACAAUCUCCACCAGCAGAGCUGGUGUUGUUCUGAAUAGUGCAGACUGAUUCGAACACAAGG: 0.292
UUUUUUCUCCUGCUCUGAGUCAGGUGGGCGUCCCCUCUAGAUCCAGGUCUGGGCAGGGGUCUGAUGGUCCACUGUGGGCUGUUUCCCUAUCCACCCCCCUCCUUGCUGGC: 0.443
CAAGACAGCAGGUGCCACGGCCCGCCCCGCCUGCCAGCCCGAAUUCCCGUUCUCCUGUGUCUACUAACAAGGACAUGGGGGUGGGCGGUGACCUCCGCAUCCCUCAGAGC: 0.539
CUUCAGUGAUUGACUUAAAGACUGGGAGGUAUAUUGCCUGUGAGAGAAAUGUCUUUUCAUGAAUCCUAAGGACAUGCUGUGUCAGCUAAACCUACAAUUGAUUGCUUCUA: 0.542
UCCAAAGAAAACCUAAUUUUCUCAGUGGGUGAACUCAUCAUUGCUGGAACUGAAACUACAACCAAUGUGCUACGGUGGGCGAUUCUUUUCAUGGCCCUUUAUCCUAAUAU: 0.459
ACUGCAUUAUUAUUGUGAAACAAACCGAUGUGGUUUAGAGCCACCAGCACUGACCCUUUCCUAGUUUCCCUAAUGCUAUCACUUAAAUAUUACAACAAAUGGGAGGUUCU: 0.318

Set 2
Target: CCND2, cyclin fold, Cln2 fusion (human)
Technique: yeast growth competition, sequencing
Matrix: yeast
Notes: weak parent motif
Baseline: not given
Direction: higher = stronger binding
Quantity: normalised enrichment score
Starting sequence: CDC25A docking peptide (human); PPHRRRLLFACSP; partner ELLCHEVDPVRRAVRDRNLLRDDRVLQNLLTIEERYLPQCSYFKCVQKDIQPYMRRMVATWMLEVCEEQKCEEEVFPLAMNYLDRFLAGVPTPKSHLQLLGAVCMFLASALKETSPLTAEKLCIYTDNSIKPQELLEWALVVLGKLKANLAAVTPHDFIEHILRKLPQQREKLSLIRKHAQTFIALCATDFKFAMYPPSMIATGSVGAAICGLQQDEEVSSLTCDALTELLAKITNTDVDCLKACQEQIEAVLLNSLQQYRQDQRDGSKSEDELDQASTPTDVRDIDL
P2Q: 0.473
P13N: 0.207
A10K: 0.0621
C11N: -0.147
L7M: 0.0337
A10M: 0.262
P2Y: 0.147
S12F: -0.0872
F9G: 0.521
R5V: 0.386
F9K: 0.0503
F9S: 0.501
R6L: 0.268
R4D: 0.118
L7W: 0.0512
H3M: -0.429
P13Y: 0.384

Set 3
Target: Histone acetyltransferase KAT6A, winged helix 2, GST fusion (KAT6A, Homo sapiens, UniProt Q92794, residues 85-181)
Technique: protein binding microarray
Molecule type: double-stranded DNA, one strand shown
Matrix: in vitro
Tested at: not given
Notes: 8-mer, flanks averaged, mean of 2 arrays, mostly near background
Baseline: not given
Direction: higher = stronger binding
Quantity: E-score
Target sequence (chain): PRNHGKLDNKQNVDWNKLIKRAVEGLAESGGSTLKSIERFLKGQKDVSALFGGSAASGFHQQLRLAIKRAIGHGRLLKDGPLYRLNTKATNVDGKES
ATGCGTGC: 0.131
GATCCCGC: 0.0808
AACCGAAC: 0.134
ATCCGTGA: 0.0906
AATGCGTA: -0.0448
GGTAGATA: -0.0535
ATTGGTGG: -0.0283
ACCCCAGA: -0.152
CCTCGGTA: -0.0397
AATATGAC: -0.0813
ACGATGTG: -0.172
AATAGCCG: -0.134
GTCTGTCA: -0.0386
AACCTCCC: -0.0532
CTTTGCCA: 0.0641
AAATATCA: 0.166
GAACATGC: -0.0893
CCTATCGA: -0.126
CCAGTAAC: -0.0141
AAGTACAT: -0.104
ACCCTTCA: -0.0385
AAGAGAGG: 0.0894
AAATCCTT: 0.0331

Set 4
Target: ABI1, truncated, D143A, DHFR fusion (Arabidopsis thaliana)
Technique: DHFR PCA, deep sequencing
Matrix: yeast
Notes: methotrexate growth selection, single substitutions
Together with: (+)-ABA 58 µM
Baseline: wild-type fitted maximum
Direction: higher = stronger binding
Quantity: relative binding score
Starting sequence: PYL1, truncated, DHFR fusion (Arabidopsis thaliana); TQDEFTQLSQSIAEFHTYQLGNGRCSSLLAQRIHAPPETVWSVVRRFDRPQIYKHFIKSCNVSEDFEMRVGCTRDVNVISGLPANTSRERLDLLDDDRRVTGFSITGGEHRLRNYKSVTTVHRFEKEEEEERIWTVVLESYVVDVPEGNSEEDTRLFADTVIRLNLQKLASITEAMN; partner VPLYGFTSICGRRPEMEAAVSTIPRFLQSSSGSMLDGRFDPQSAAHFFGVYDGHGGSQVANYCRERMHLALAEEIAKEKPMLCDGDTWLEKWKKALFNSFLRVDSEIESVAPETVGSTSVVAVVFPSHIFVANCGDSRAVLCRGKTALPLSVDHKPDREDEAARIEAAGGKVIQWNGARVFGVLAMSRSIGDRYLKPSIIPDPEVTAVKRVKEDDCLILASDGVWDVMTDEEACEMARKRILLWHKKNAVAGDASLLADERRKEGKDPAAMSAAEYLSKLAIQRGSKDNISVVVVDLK
D97A: 89.6%
P50A: 20.4%
D3F: 83.7%
I162L: 52.4%
E152F: 72.3%
F66L: 72.3%
D65R: 81.2%
S59W: 56.7%
S171P: 14.5%
L166N: 7.27%
G71I: 6.53%
E4S: 79%
A175W: 66.9%
E151F: 71.1%
V40G: -9.26%
R132A: 104%
G23A: 78.4%
S63G: 90.6%
T106V: 106%
G102N: -4.58%
N114K: 53.2%
N85R: 91.9%

Repeated from above (set 4):
S171P: 14.5%
L166N: 7.27%
G71I: 6.53%
E4S: 79%
A175W: 66.9%
E151F: 71.1%
V40G: -9.26%
R132A: 104%
G23A: 78.4%
S63G: 90.6%
